Experimental data collected from several papers.
Each line is one published result; not all experiments were run side by side.
Effect on: tubulin polymerisation
Action: inhibitor

SMILES | test | conditions | IC50
COc1cc(-c2ccc(C(=O)N/N=C/c3ccncc3)c(C)n2)cc(OC)c1OC |  |  | 43.2 nM
CCn1c2ccccc2c2cc(C(O)c3cccc4ncccc34)ccc21 (stereo not shown) | absorbance |  | 1100 nM
COc1ccc2c(NC(=O)CCl)c(C(=O)c3cc(OC)c(OC)c(OC)c3)oc2c1 |  |  | 2000 nM
COc1cc(NC(=O)/C=C/c2c[nH]c3ccccc23)cc(OC)c1OC | absorbance |  | < 20000 nM
CCSc1nnc(-c2ccc(-c3cc(OC)c(OC)c(OC)c3)nc2C)o1 |  |  | 31.9 nM
Cc1ccc(C)c(C(=O)/C=C/C(=O)Nc2ccccc2)c1 | absorbance |  | < 5000 nM
N#Cc1c(-c2ccc(Cl)c(Cl)c2)c(-c2ccc(Cl)c(Cl)c2)nn(CC(=O)O)c1=O |  | 20 min | 4200 nM
CCOC(=O)c1cc(CCc2ccc(OC)cc2)sc1N | absorbance | 20 min | 16000 nM
N#Cc1c(-c2ccc(Cl)c(Cl)c2)c(-c2ccc(Cl)c(Cl)c2)nn(CCO)c1=O |  | 20 min | 5800 nM
COC(=O)c1cc(CCc2ccc(OC)cc2C)sc1N | absorbance | 20 min | > 20000 nM
COc1cc(-c2ccc(-c3nnc(SC)o3)c(C)n2)cc(OC)c1OC |  |  | 64.1 nM
COc1cc(NC(=O)c2cc(-c3c[nH]c4ccccc34)n[nH]2)cc(OC)c1OC | absorbance | 20 min | > 20000 nM
COC(=O)c1cc(CCc2cc(OC)ccc2OC)ccc1O | absorbance | 20 min | 2000 nM
N#Cc1c(-c2ccccc2)c(-c2ccccc2)nn(Cc2nn[nH]n2)c1=O |  | 20 min | 3000 nM
COc1ccc2c(NC(=O)CI)c(C(=O)c3cc(OC)c(OC)c(OC)c3)oc2c1 |  |  | 1800 nM
CC(C)(C)c1ccc(NC(=O)c2cc(-c3c[nH]c4ccccc34)n[nH]2)cc1 | absorbance | 20 min | > 20000 nM
CCOC(=O)c1cc(CCc2cc(OC)ccc2OC)sc1N | absorbance | 20 min | 3100 nM
COc1cc(-c2ccc(C(=O)N/N=C/c3ccc([N+](=O)[O-])cc3)c(C)n2)cc(OC)c1OC |  |  | 10.8 nM
COc1ccc2c(C(=O)c3cc(C(F)(F)F)cc(C(F)(F)F)c3)c(-c3ccc(OC)c(O)c3)[nH]c2c1 | absorbance |  | < 5000 nM
